Measured values from different studies.
Every numbered part comes from another study and shows a few of its results, in no order.

Set 1
Target: Prothrombin, mature alpha-thrombin (F2, Homo sapiens, UniProt P00734)
Technique: aptamer microarray, sandwich
Molecule type: DNA with 2'F-ANA
Matrix: in vitro
Tested at: 200 nM
Notes: whole 15-mer aptamer, many near background
Together with: Cy3 exosite-II aptamer, 400 nM
Direction: higher = stronger binding
Quantity: mean fluorescence intensity
Strand: GGTTGGTGTGGTTGG
2'F-ANA at 1 3 6 8 13 14: 88.7 a.u.
2'F-ANA at 1 2 4 5 7 8 11 12 13 14 15: 46 a.u.
2'F-ANA at 2 3 5 11 12: 212 a.u.
2'F-ANA at 2 6 7 9 10 14 15: 129 a.u.
2'F-ANA at 4 6 8 9 12 13: 360 a.u.
2'F-ANA at 1 2 3 4 5 6 7 10 11 13: 52.7 a.u.
2'F-ANA at 2 4 5 7 9 11: 59.3 a.u.
2'F-ANA at 2 3 6 8 9 10 11 12 14: 254 a.u.
2'F-ANA at 1 2 4 6 11 12 14: 56 a.u.
2'F-ANA at 9 12 13 15: 612 a.u.
2'F-ANA at 3 5 7 8 10 11 13 14 15: 56.8 a.u.
2'F-ANA at 1 3 4 9 10 11 12 15: 80.2 a.u.
2'F-ANA at 2 4 6 8 9 10 13: 76.6 a.u.
2'F-ANA at 1 4 5 6 8 11 13: 49.5 a.u.
2'F-ANA at 3 5 6 7 8 12 14: 63.7 a.u.
2'F-ANA at 1 2 3 4 7 13 14 15: 67.6 a.u.
2'F-ANA at 5 7 10 11 12: 53.1 a.u.
2'F-ANA at 1 4 5 12 13: 77.5 a.u.
2'F-ANA at 1 2 4 5 6 8 10 13 14: 49.1 a.u.
2'F-ANA at 1 7 9 10 11 12 13: 62.2 a.u.
2'F-ANA at 1 3 5 6 12 13: 112 a.u.
2'F-ANA at 3 4 5 8 10 11 12 13: 48.8 a.u.
2'F-ANA at 1 2 3 6 7 8 9 11 12 13 15: 273 a.u.
2'F-ANA at 2 5 8 9 11 12 15: 112 a.u.
2'F-ANA at 5 10 12 13 14 15: 44.9 a.u.

Set 2
Target: Histone acetyltransferase KAT6A, winged helix 1, GST fusion (KAT6A, Homo sapiens, UniProt Q92794, residues 1-85)
Technique: protein binding microarray
Molecule type: double-stranded DNA, one strand shown
Matrix: in vitro
Tested at: not given
Notes: 8-mer, flanks averaged, mean of 2 arrays, mostly near background
Reference: not given
Direction: higher = stronger binding
Quantity: E-score
Construct (chain): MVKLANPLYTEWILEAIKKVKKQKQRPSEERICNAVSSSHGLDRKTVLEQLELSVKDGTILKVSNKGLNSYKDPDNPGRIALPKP
CAGTATGA: -0.205
ATACCAAC: -0.0612
CTCGAGTC: -0.0296
AAGGAAAG: -0.0796
AAGAGAAC: -0.0942
CATCGTAC: -0.0688
CAGAGTAA: -0.0891
CGCTCTTA: 0.291
AGCTCAGC: -0.115
GCCCATAC: -0.056
ACTAATAC: 0.0106
GATGTTTA: -0.0696
GTGTCCAA: -0.131
CCCTTGCA: -0.118
ACTAGGTG: -0.0728
AACGATAT: -0.0844
AATTAAAC: -0.211
AAATCATG: -0.245
ACGCCGAG: 0.304
CGGACCGC: 0.338
CACTCCCC: 0.172
ATTTGTCG: -0.101
ATCCACCG: 0.0943
ACTGGCAC: -0.211
TGCGTGAA: 0.142

Set 3
Target: Sal-like protein 4, full length isoform A (SALL4, Homo sapiens, UniProt Q9UJQ4, residues 1-1053)
Sequence of UniProt Q9UJQ4 (whole entry, looked up): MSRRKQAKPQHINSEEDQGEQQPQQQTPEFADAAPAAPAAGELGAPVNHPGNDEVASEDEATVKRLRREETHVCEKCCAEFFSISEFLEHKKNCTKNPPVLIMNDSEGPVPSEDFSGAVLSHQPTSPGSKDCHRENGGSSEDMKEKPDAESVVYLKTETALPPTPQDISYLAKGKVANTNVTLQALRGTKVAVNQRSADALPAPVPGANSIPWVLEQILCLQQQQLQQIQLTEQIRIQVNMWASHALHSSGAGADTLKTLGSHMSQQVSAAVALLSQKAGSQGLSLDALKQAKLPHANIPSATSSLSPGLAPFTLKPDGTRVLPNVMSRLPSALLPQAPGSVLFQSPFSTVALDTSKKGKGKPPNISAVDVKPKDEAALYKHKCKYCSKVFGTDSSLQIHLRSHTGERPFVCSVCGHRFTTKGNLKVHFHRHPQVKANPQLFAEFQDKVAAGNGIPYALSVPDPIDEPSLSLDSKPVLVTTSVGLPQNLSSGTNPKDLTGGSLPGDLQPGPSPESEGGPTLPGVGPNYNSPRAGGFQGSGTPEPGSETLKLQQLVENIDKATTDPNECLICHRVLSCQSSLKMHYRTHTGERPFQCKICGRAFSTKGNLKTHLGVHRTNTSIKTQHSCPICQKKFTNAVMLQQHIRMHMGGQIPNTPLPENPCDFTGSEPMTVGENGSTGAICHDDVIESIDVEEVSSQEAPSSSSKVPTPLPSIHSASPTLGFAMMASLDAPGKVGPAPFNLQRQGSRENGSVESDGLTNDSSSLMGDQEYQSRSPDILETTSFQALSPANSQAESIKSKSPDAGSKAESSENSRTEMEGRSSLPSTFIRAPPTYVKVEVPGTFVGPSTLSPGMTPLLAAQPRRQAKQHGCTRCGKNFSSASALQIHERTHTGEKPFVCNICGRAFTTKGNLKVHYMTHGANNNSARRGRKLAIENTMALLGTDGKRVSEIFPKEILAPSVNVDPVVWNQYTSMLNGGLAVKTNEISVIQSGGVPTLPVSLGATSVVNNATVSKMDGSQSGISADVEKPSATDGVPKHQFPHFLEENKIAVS
Technique: universal PBM
Molecule type: double-stranded DNA, one strand shown
Matrix: in vitro
Tested at: 600 nM
Notes: 8-mer, flanks averaged, mean of replicates
Direction: higher = stronger binding
Quantity: E-score
ACTGGCGC: -0.194
GGGGTTAA: -0.131
ATGCACCC: -0.1
GCTAACGA: -0.041
CACCAGCA: -0.159
CGCGTAAA: 0.109
CTTCTGCC: -0.157
CACGAAAG: 0.0253
GTCGCGAC: -0.0576
ATTCTTAC: 0.245
CCATGAGC: -0.245
ACGCGCTG: -0.3
TACCGGTA: -0.00895
CGCGGGAA: -0.18
CCCCAAAG: -0.19
ATGTAGAG: 0.141
ATTGGCCG: -0.0644
CATTGGCC: -0.235

Set 4
Target: Centromere-binding protein 1, full length, N-terminal tag (CBF1, Saccharomyces cerevisiae, UniProt P17106, residues 1-351)
Sequence of UniProt P17106 (whole entry, looked up): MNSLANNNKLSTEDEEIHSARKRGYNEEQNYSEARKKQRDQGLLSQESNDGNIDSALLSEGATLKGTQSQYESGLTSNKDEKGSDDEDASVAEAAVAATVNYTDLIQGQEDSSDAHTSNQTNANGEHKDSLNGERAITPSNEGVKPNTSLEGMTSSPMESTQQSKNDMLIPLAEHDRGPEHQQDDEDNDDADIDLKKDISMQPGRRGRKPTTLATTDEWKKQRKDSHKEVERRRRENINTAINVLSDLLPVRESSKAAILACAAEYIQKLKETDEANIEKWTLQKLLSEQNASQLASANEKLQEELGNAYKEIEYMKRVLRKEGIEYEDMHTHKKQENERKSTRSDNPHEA
Technique: protein-binding microarray
Molecule type: double-stranded DNA, one strand shown
Matrix: in vitro
Tested at: 0.8 µM
Notes: whole 60-bp probe, no competitor
Direction: higher = stronger binding
Quantity: fluorescence intensity
All sequences stand within: … GTCTTGATTCGCTTGACGCTGCTG
CTAAGACTAACCCAAAGTGTGCGCAATAAACTCTTC: 527 a.u.
GAATTGTATGTGAAGCACGTTGCTGCCCCCTTTTAG: 788 a.u.
GAAACGCAGACGTAACATCAGTCATCAGTTAATTAG: 534 a.u.
CTACGTATGTGTTCGTACGTGCGGTCCGCAAGGTTC: 491 a.u.
GAACGGAGACAATAGCACGAGTGGTAACAGGTCTAG: 551 a.u.
CTAGAAGAAGGAAAAAAGGTGGCGTCGAAGACTTTC: 494 a.u.
CTAGCTTATATTTGTCACGTATACCTACTATTTTTC: 777 a.u.
CTACAAAAACAAAACCGCATCACCTTTGGCAGCTTC: 494 a.u.
CTATCTTCCATATCCCACGTAATGGCAATTGGCTTC: 551 a.u.
TGTACGAAGCTATCACACACGCATATAGTAGTTAGG: 554 a.u.
GAATTCCGCGGACAACACGCAATTAGAGAGACATAG: 532 a.u.
GAATTTGAACCTTTTCTCGTGCCAAATAAATTCTAG: 765 a.u.
GAATTCCTATTTGAGTTCGTGGTGTTAGTATTCTAG: 545 a.u.
GAACCATATGAAAAGAACGTGGATTTTGATGTATAG: 550 a.u.
GAACCACTATTTCGTCACCCGCTCGAGGTGGCTTAG: 514 a.u.
GAAAGTATTTGGAGGCACGTCCCGGACTAAAGATAG: 539 a.u.
GAAATTATATTGTATCGTGTCACCCCCATGTCATAG: 584 a.u.
TGTACGAAGCTATGTGGTGCCTTTATAGTAGTTAGG: 489 a.u.
CTACCCCAGTTACACGTGGGGACAATGGCGCTCTTC: 1830 a.u.
CTAGCCCTTAGATCTCACATGATGCTTGACTGATTC: 780 a.u.
CTAAAAAAAGCCAACGAGATCACGTGCACAGAATTC: 22900 a.u.
GAATCGCCCATTCATCTGACAGGACAGAATGCCTAG: 483 a.u.
CTATGTTGGAGATATCTCCTGTATGGGTAATATTTC: 517 a.u.
GAATTGTCTTAGTATCACCTGAGTGGTTATTCATAG: 1090 a.u.
GAAGCCATTTGCAGACACGTTTTTACTATATTTTAG: 762 a.u.

Set 5
Target: RING finger protein unkempt homolog, zinc fingers 1-6, GST-SBP tag (UNK, Homo sapiens, UniProt Q9C0B0, residues 30-357)
Sequence of UniProt Q9C0B0 (30-357, looked up): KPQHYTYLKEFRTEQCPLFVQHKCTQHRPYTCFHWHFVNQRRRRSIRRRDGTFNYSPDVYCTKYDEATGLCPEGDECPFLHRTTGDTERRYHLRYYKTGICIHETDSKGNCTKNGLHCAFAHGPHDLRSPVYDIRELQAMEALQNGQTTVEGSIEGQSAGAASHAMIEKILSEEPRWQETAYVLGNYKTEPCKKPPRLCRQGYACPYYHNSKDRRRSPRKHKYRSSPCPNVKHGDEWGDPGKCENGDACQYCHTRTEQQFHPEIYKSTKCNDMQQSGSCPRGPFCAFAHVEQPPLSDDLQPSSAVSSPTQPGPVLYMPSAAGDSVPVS
Technique: RNA Bind-n-Seq
Molecule type: RNA
Matrix: in vitro
Tested at: not given
Notes: RNA with constant flanks, human and mouse sites, ends assumed
Reference: input RNA pool
Direction: higher = stronger binding
Quantity: bound/input enrichment
All sequences stand within: GGGAGUUCUACAGUCCGACGAUC … CAACAGAGGAUUGAGCAUCA
CUCAAUGGCUUGGAACCAGAAAAUAUCCACAUGAUGAUUGGGUCUAUGACAAUCGACUGCUUAGGAAUUCUAAAUGAUCUCUCCGACUGUGAAGAUAAGCUCUUUCCUAUUGGAUAUCAG: 0.429 ratio
AAUGCCUACCUUCAGAGCCAGGCCACAGCUACAGACUGGCACGAGAAACAUGAUUACGUUCACCCCCACCAGGGCGUCCCGGACACUCUCACGGGUCCAGAUCUCAAAGAACACCUCAUU: 0.106 ratio
UCCUGUGUUAGGGGGGGUCUGGCUUUUUCUGGAGGUAACUAGGGUGAUGAAAACGUAUCCUUAGGCGUGGUUAUGGCCGUCUUGGCCACCUGUACACCACUUGCCAAUGCAAGGACUUGU: 0.539 ratio
GAUGGUCUGGAAAAAUCUUUCUACUCCUUUUAUGUUUGUACAGCAGUUAGGAAGUUCUUCUUCUUUUUAGAUCCUUUAAGAACAGGAAAGAUAAAAAUUCAAGAUAUUUUAGCAUGCAGC: 1.01 ratio
CAGGCAGCUUUGGAAUUUCAUGGUGUGGCCCAAGAUUUGUCUCAGCAGUUGGACGGCUUAUUAGGGAUGUUGUGCGUAGAUGUAGCACCAGCUGAUGGAGCAUCGAUUCAGCAAACUUUA: 0.497 ratio
AGUACUGGCAGUCGAGGCAGCUGCGGAUCAUCAGGAAGAACUGCUGAGAAAAGUGCUCAUAGUUUCAAGUCUGAUCAGGUGAAGGUCAAGCAGGAACCUGGGACUGAAGAAGAGAUAUGC: 0.13 ratio
AGCCUGUGGUGGGCGCUGCGGGUGUUUGCAGGAGGUUGCAGUACUCGCUGGGCUGAGGUCGUCUCGGGUGAGGAGGUCGCGCCGGAAGUGGCUCUAGCCGUGGCGCUUCGGCGUAGUAAG: 0.444 ratio
AAGAUGCCUUUCCGGUAGCAGGUCAGAAGUUAAUUUAUGCAGGCAAAAUCCUCAGUGAUGAUACUGCUCUCAAAGAAUAUAAAAUUGAUGAGAAAAACUUUGUGGUGGUUAUGGUGACAA: 0.239 ratio
UACCCAGAAGGAGAGGGUGAGACCUAUUACUAUGAGUAUCCAUAUUAUGAAGACCCUGAAGACCCGGGAAAGGAGCCUGCCCCUACUCAGAAGCCAGUGGAAGCUGCCAGAGAAACCACA: 0.256 ratio
CAAAGGAACAAUGUGCAAUUGAUAUGUUUUUAGAUGAGAGAGAAAAAUUAAAGCUAAAAUUAGCUGCAAAGAAGUAUUAAUAAUCACCUCUGCAAAAAUUCUAAGUUGCCAACUGGCAAA: 1.14 ratio
GGGGGCGGAGCCACAGGGUGGUGGGCUGUGUAUGUGUGUUUGUAUGUGUUUGGUCGCGUGUUGGUUAAGUCGUGUUGCUGGAAUACCGAGGAGAGGCGGAGGCGGAAGGCGGGGGCGGUC: 0.661 ratio

Repeated from above (set 2):
CAGAGTAA: -0.0891
CGGACCGC: 0.338
GCCCATAC: -0.056
CATCGTAC: -0.0688
AATTAAAC: -0.211
CAGTATGA: -0.205
CGCTCTTA: 0.291
AAGAGAAC: -0.0942
AAATCATG: -0.245
ACTGGCAC: -0.211
AGCTCAGC: -0.115
AAGGAAAG: -0.0796
TGCGTGAA: 0.142
